Experimental data from different studies.
Every numbered part comes from another study and shows a few of its results, in no order.

Set 1 — observed: enzyme activity; action: inhibitor; tested at: 20 µM
Target: Replicase polyprotein 1ab, polymerase (rep, Severe acute respiratory syndrome coronavirus 2, UniProt P0DTD1)
| SMILES | inhibition [%] |
| --- | --- |
| NC(N)=Nc1nc(CSCC/C(N)=N/S(N)(=O)=O)cs1 | 0.22 |
| Nc1ncnc2c1ncn2CCOCP(=O)(O)O | -1.05 |
| CN1CCN(c2ccc3[nH]c(-c4ccc5[nH]c(-c6ccc(O)cc6)nc5c4)nc3c2)CC1 | 59.1 |
| Cc1c(Cl)cccc1Nc1ccccc1C(=O)O | 23.7 |
| COc1cc2ncnc(Nc3ccc(Cl)cc3F)c2cc1OC | 0.18 |
| CC(C)CC(N)=O | -5.68 |
| CCCCN(CC)c1nc(C)nc2c1c(C)c(C)n2-c1c(C)cc(C)cc1C | 3.98 |
| c1nc(CC2CCNCC2)c[nH]1 | -5.58 |
| O=C1C(Cl)=C(NCCN2CCOCC2)C(=O)c2ncccc21 | 36.2 |
| Cc1cc(SCc2sc(-c3ccc(C(F)(F)F)c(F)c3)nc2C)ccc1OCC(=O)O | -0.65 |
| Nc1nc(F)nc2c1ncn2[C@@H]1O[C@H](CO)[C@@H](O)[C@@H]1O | -19.7 |
| CC1(C)S[C@@H]2[C@H](N)C(=O)N2[C@H]1C(=O)O | -0.71 |
| CNc1ccc([N+](=O)[O-])cc1-n1cnc(-c2ccc(C(F)(F)F)cc2)c1 | 1.07 |
| CC(C)=CCC[C@]1(C)C=Cc2c(O)c3c(c(CC=C(C)C)c2O1)O[C@]12C(=C[C@@H]4C[C@H]1C(C)(C)O[C@@]2(C/C=C(/C)C(=O)O)C4=O)C3=O | 3.05 |
| Nc1cccc2c1C(=O)N(C1CCC(=O)NC1=O)C2=O (stereo not drawn) | 4.07 |
| CCCc1c(OCC(O)COc2ccc3c(=O)cc(C(=O)O)oc3c2CCC)ccc(C(C)=O)c1O (stereo not drawn) | -2.02 |
| CC(=O)N(O)CCCCCNC(=O)CCC(=O)N(O)CCCCCNC(=O)CCC(=O)N(O)CCCCCN | 1.18 |
| Cc1ccc(/C=C2\CNC/C(=C\c3ccc(C)cc3)C2=O)cc1 | -2.92 |
| COc1ccccc1N1CCN(CCN2C(=O)CC3(CCCC3)CC2=O)CC1 | -2.91 |

Set 2 — technique: RNA Bind-n-Seq; form: RNA; matrix: in vitro; tested at: 365 nM; baseline: no-protein control; direction: higher = stronger binding
Target: RNA binding protein fox-1 homolog 2, RRM domain, GST-SBP tag (RBFOX2, Homo sapiens, UniProt O43251-10, residues 100-194)
Setting: natural RNA segment, single round, ends assumed
Constant ends, left off below: GGGAGUUCUACAGUCCGACGAUC … UGGAAUUCUCGGGUGCCAA
Residues (chain): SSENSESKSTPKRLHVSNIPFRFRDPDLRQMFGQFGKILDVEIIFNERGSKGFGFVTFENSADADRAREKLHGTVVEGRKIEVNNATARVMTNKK
| Oligonucleotide | RBNS enrichment (R) |
| --- | --- |
| UUCUGUGCCCAGGAGCAGCUGGGGGUUCCACCUCAGGGUGGGGCGGGCAGGACCCCGUCUCCCCAGGUGUCGGAGCCUGACCUGAAUUAAAGUACUGACUGCUCGCCACA | 0.344 |
| UUACCCAGACUCAAGGAGUUGGUAAAGGGUUAAUAGCCAGAUAGUAGAACCAGUGAGGAGAUGCGGCCAAAGAUUCUUUAUAUCUGAACCAAGAUGUAAAACAAGAAAUG | 0.685 |
| AGACUCAAUGAGUUAAUACUAUUUCACUGAGCCCAAGAUGGAAACUUGGUUUGACCUAAAACAUCUGAUUAAUAUAGGCUAGCUGAUUUCUUAAAAAUUCGUUGCAUUGA | 0.316 |
| CUGGAGACCUCGGCUCCUCCUGCUCCUGAACCAGGAGGCUUCAUGUGGGGGAGGAGGAGAGGUCUCCAUGUGACACAUGGGCUCAGGGCUGCCAGAAUCAGCGGAUGCUG | 0.273 |
| GAUCACUGAGACAGCCACUUGGUUUUUGGCUCUUUCAGAGAGGUCUCAGGUUCUUUCCAUGCAGACUCCUCAGAUCUGAACACAGUUUAGUGCUUUACAUGCUGUGCUCU | 0.497 |
| UGUGUGUGCCACAUUUUUAAAUUUUGUCAAGGUUUACCCACACACACACCAAUCAAAACCUUAUUGGUCUGGAAGUUGGGAUUCCGUUUUUGGUAGAUCGUGGUAGAUCU | 0.347 |
| GGAGAGUUCAAGUCUUUGUCGUUACACACUGCUGUUUUGAUUAUUGGUCUUAGUUUUGAUCCUGUUGCAGCAAAAUCCUGCAGCAUCUUUCUCUCCAAUAAUGUUGCAAC | 0.313 |
| UCUCCUCCCUGGACAAGGCUCAGUGGACCAUCAGAUGGAGGAAGACUGGCCCCAUUGCUUGAGCCCCUGUGCGACCCUUGACCUCCAGCCUUAGUUCUCCUGGAAGCUGC | 0.441 |

Set 3 — observed: enzyme activity; action: inhibitor; tested at: 20 µM; setting: primary screen
Target: Replicase polyprotein 1ab, main protease (rep, Severe acute respiratory syndrome coronavirus 2, UniProt P0DTD1)
| SMILES | inhibition [%] |
| --- | --- |
| COc1ccc(OC)c2c(=S)c3ccccc3[nH]c12 | 78.7 |
| Cc1c(C)c(NCC(=O)N(C)C2CCN(Cc3ccc(C(N)=O)cc3)CC2)c(C)c(C)c1N | 25.5 |
| CCn1c(-c2nonc2N)nc2cnc(Oc3cccc(NC(=O)c4ccc(OCCN5CCOCC5)cc4)c3)cc21 | 29.1 |

Set 4 — technique: protein binding microarray; form: double-stranded DNA, one strand shown; matrix: in vitro; tested at: not given; baseline: not given; direction: higher = stronger binding
Target: Histone acetyltransferase KAT6A, both winged helices, GST fusion (KAT6A, Homo sapiens, UniProt Q92794, residues 1-181)
Setting: 8-mer, flanks averaged, mean of 2 arrays, mostly near background
Residues (chain): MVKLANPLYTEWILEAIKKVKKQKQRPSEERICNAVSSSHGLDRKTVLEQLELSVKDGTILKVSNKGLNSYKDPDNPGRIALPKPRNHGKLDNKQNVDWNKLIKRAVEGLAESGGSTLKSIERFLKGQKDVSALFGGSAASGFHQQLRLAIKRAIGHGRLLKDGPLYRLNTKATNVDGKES
| Oligonucleotide | E-score |
| --- | --- |
| ACATCTGG | -0.051 |
| GCCTACTA | -0.202 |
| ACACGCTC | 0.0999 |
| GCTTGCAA | -0.0335 |
| AGCCTTAC | -0.118 |
| ATCAACGC | 0.107 |
| GACTACCC | -0.0803 |
| AGCGATAA | 0.142 |

Set 5 — cell line: HEK-293T/ACE2; observed: pseudovirus infection; organism: VSV pseudotyped with SARS-CoV-2 spike; tested at: concentration not given; baseline: vehicle-treated
| Structure (SMILES) | GFP-positive cells |
| --- | --- |
| CNC(=O)c1ccc(N2C(=S)N(c3ccc(C#N)c(C(F)(F)F)c3)C(=O)C2(C)C)cc1F | 95.8% |
| COc1c(-c2ccc3cc(NS(C)(=O)=O)ccc3c2)cc(-n2ccc(=O)[nH]c2=O)cc1C(C)(C)C | 70.7% |
| CC(C)(C)c1nc(-c2cccc(NS(=O)(=O)c3c(F)cccc3F)c2F)c(-c2ccnc(N)n2)s1 | 60.2% |
| CCC(=O)O[C@@H](O[P@](=O)(CCCCc1ccccc1)CC(=O)N1C[C@H](C2CCCCC2)C[C@H]1C(=O)[O-])C(C)C.[Na+] | 117% |

Some of these lines once more (set 1):
| SMILES | inhibition [%] |
| --- | --- |
| O=C1C(Cl)=C(NCCN2CCOCC2)C(=O)c2ncccc21 | 36.2 |
| Cc1cc(SCc2sc(-c3ccc(C(F)(F)F)c(F)c3)nc2C)ccc1OCC(=O)O | -0.65 |
| Nc1nc(F)nc2c1ncn2[C@@H]1O[C@H](CO)[C@@H](O)[C@@H]1O | -19.7 |
| CC1(C)S[C@@H]2[C@H](N)C(=O)N2[C@H]1C(=O)O | -0.71 |
| CNc1ccc([N+](=O)[O-])cc1-n1cnc(-c2ccc(C(F)(F)F)cc2)c1 | 1.07 |
| CC(C)=CCC[C@]1(C)C=Cc2c(O)c3c(c(CC=C(C)C)c2O1)O[C@]12C(=C[C@@H]4C[C@H]1C(C)(C)O[C@@]2(C/C=C(/C)C(=O)O)C4=O)C3=O | 3.05 |
